Measurements from different studies.
Every numbered part comes from another study and shows a few of its results, in no order.

Block 1
Target: RNA binding protein fox-1 homolog 2, RRM domain, GST-SBP tag (RBFOX2, Homo sapiens, UniProt O43251-10, residues 100-194)
Technique: RNA Bind-n-Seq
Molecule type: RNA
Medium: in vitro
Concentration: 365 nM
Setting: natural RNA segment, single round, ends assumed
Relative to: no-protein control
Reading: higher = stronger binding
Constant ends, left off below: GGGAGUUCUACAGUCCGACGAUC … UGGAAUUCUCGGGUGCCAA
Residues (chain): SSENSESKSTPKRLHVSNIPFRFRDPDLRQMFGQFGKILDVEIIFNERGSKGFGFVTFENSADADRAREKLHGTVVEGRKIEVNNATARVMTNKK
Sequence	RBNS enrichment (R)
UAAUAAUAGUACCUAAGAGUAUUGAUGGUUUUCAUUUUUCAACCAGCACUCUAAUGCACAGCUGCUGACAAUAAAAGCCCCAACUCUUAACGGAGAUCAGUGGGAGUUAC	0.661
AGUUGUACUGUAUGCAGUUUUGUAAAUAAGUGAAAAUAAUUUGUUGUACUUUUUAUUCAAUUCUGUAUAGAUUAUAAAAUUAUUUUUAUUAAAUAAAUAUUUUACAGUAU	1.52
ACCCCUCCGUGCCUCAGCUUUUUCCCCACAGACACCUACCUCACAGGGGCAUUGAGAAAAAAAAAAUGAAGGCAUUUUACAGUCUCUAAACAUCUUUAAGUGCCAUGAGU	0.658
CCAAUCUGCCAUUCAUGGUGUUAUAAACUCGGAAUUCCAUAUGUAAUAGGAUGCAAGUCUAAGCGUUUCAUGUGGACAUAAAUGUAUCUAAAUAAAACUUCCCCUAGCAC	0.205
AGGUGGGACCUCUGAGACACUGGUCCCCACAGAGCUGUAAGUGAGAAGAGCAGUUUGUCCACUCUGGGUGCUGCUGAGGGAGCUGUUUGGGAAGAAGCCAUCCCUGGCCA	0.859
UGCCAGCUGGCUGAUCUAAGCUCCUGAGGAAUGUCUCCUCUCAAAGGAAUUUUUCCCUCCAAAGGCCCCCUGAAGUCCUAGUUGGCAUUGGCCUGGCACAUGCUUUAUGU	0.219

Block 2
Target: Fragile X messenger ribonucleoprotein 1, C-terminal low-complexity region (Fmr1, Mus musculus, UniProt P35922)
Technique: RNA Bind-n-Seq
Molecule type: RNA
Medium: in vitro
Concentration: 200 nM
Setting: whole 134-nt RNA, ends assumed
Added: 150 mM KCl
Relative to: input library
Reading: higher = stronger binding
Constant ends, left off below: GGGAGUUCUACAGUCCGACGAUC … UGGAAUUCUCGGGUGUCAAGG
Sequence	log2 enrichment
AGUCCUGUGCUACACAUCGUAUGUACCGAAUCGGGGCCCGGGGCCCGGGGCCCGGGGAAAGUAUUAUGUUACGCCGUUCGGAUCUGCACU	-0.973
CACAGACAACACGCACCCACACAGACACAGAGGGAAGGGGUUGGGAUGGGGACAGGAAACACAGCAGGGCGGGGUAGGACCCCAGCCCCU	1.21
GUCCUGUGCUACACAUCGUAUGUACCGAAUCGGGGUUUGGGGAAAAAAAGGGGUGGGGAAAGUAUUAUGUUACGCCGUUCGGAUCUGCAC	0.594
CUGUGCUACACAUCGUAUGUACCGAAUCGGGGUUUUUUUGGGGUUUUUUUGGGUUUUUUUGGAAAGUAUUAUGUUACGCCGUUCGGAUCU	-0.0622
GUCCUGUGCUACACAUCGUAUGUACCGAAUCGGGUUUGGGAAAAAAAGGGAAAAAGGGAAAGUAUUAUGUUACGCCGUUCGGAUCUGCAC	-0.151
ACCAUGCAGGUGGGCAACUUUGGGAAGUGGGGCAAGGGGGGGAUAGGGAGGGGGGUAACACUUUGGGAACAGGUGGUCCCAGGUCGUUUC	0.736
UCAAGUCCUGUGCUACACAUCGUAUGUACCGAAUCGGAAAGGUUUGGUUUUUGGAAAGUAUUAUGUUACGCCGUUCGGAUCUGCACUUCC	-0.664
UCCUGUGCUACACAUCGUAUGUACCGAAUCGGUUUUUUGGUUUUUUGGGUUUUUUGGGGAAAGUAUUAUGUUACGCCGUUCGGAUCUGCA	-0.37
GUCCUGUGCUACACAUCGUAUGUACCGAAUCAAAUUUUUUUAAACCCCCAAAUUUAAAAAAGUAUUAUGUUACGCCGUUCGGAUCUGCAC	-0.0767
GUCCUGUGCUACACAUCGUAUGUACCGAAUCGGGAAAAAGGGGAAAAAGGGAAAAAGGGAAAGUAUUAUGUUACGCCGUUCGGAUCUGCA	-0.319
GCUCGCCCGAGCUCAGAGGUGAUCAAAGACGCCAACUUGUACAUCAGCGGGCUCCCGCGGACCAUGACCCAGAAGGACGUAGAAGACAUG	-0.632

Block 3
Target: Histone acetyltransferase KAT6A, winged helix 1, GST fusion (KAT6A, Homo sapiens, UniProt Q92794, residues 1-85)
Technique: protein binding microarray
Molecule type: double-stranded DNA, one strand shown
Medium: in vitro
Concentration: not given
Setting: 8-mer, flanks averaged, mean of 2 arrays, mostly near background
Relative to: not given
Reading: higher = stronger binding
Construct (chain): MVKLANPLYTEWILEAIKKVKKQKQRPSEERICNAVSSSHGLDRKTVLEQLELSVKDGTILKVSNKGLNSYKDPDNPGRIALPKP
Sequence	E-score
CACGGGTC	0.326
CGTAGCAC	0.102
GGACTGAA	-0.13
CACAGGAC	-0.0965
GGCGAGAC	0.103
ACCGTCAG	0.1
ACCCGACG	0.408
CCATGAAC	-0.151
ATACGTCG	0.15

Single results of other studies
Molecule	target	assay	system	conditions	scale	quantity	result
PhoQ, residues 284 288 289 292 302 303 SSLVEF	PhoP, residues 12 14 15 18 19 NQFFI (Escherichia coli, UniProt P23836)	Sort-seq, measured: YFP reporter	E. coli	PhoQ-PhoP variant library, added: 10 µM Mg2+	relative to: high Mg2+ state, higher = stronger signaling	fold induction	9.6

Excerpt of the above (block 1):
Sequence	RBNS enrichment (R)
AGGUGGGACCUCUGAGACACUGGUCCCCACAGAGCUGUAAGUGAGAAGAGCAGUUUGUCCACUCUGGGUGCUGCUGAGGGAGCUGUUUGGGAAGAAGCCAUCCCUGGCCA	0.859
UAAUAAUAGUACCUAAGAGUAUUGAUGGUUUUCAUUUUUCAACCAGCACUCUAAUGCACAGCUGCUGACAAUAAAAGCCCCAACUCUUAACGGAGAUCAGUGGGAGUUAC	0.661
UGCCAGCUGGCUGAUCUAAGCUCCUGAGGAAUGUCUCCUCUCAAAGGAAUUUUUCCCUCCAAAGGCCCCCUGAAGUCCUAGUUGGCAUUGGCCUGGCACAUGCUUUAUGU	0.219
